Measurements from different studies.
Compare with care: the assays were run in different laboratories. Values joined by “and” are separate records of one study, mostly repeats; a detail may differ. Numbers after ± are the reported error.

SMILES	test	system	setting	how to read	quantity	result
COc1c(OCCCN2CCOCC2)ccc2c1N=C(NC(=O)c1cnc(N)nc1)N1CCN=C21	–	relapsed iNHL patients	dose not given, 1 years follow-up	–	progression-free survival events	29.5%
N#CCC1CCN(c2nc(Nc3ccc(N4CCC(O)CC4)cc3)c3c(=O)[nH]ncc3n2)CC1	Olink multiplex, item: CDCP1	human, serum	40 mg, day 29	relative to: baseline	fold change from baseline	-1.27
CC(c1cc2ccccc2s1)N(O)C(N)=O (stereo not drawn)	–	human blood	3 µM, with: A23187	–	EPA level	72100 ± 19000 pg/mL
Cc1sc2c(c1C)C(c1ccc(Cl)cc1)=N[C@@H](CC(=O)NCCCCCCCCNC(=O)COc1cccc3c1C(=O)N(C1CCC(=O)NC1=O)C3=O)c1nnc(C)n1-2 (stereo partly drawn)	flow cytometry	4T1 tumour-bearing mice, spleen	dose not given	–	CD80+ CD86+ dendritic cells	28.3% and 28.8% and 26.5% and 27.9%
COc1ccccc1[C@H](Cn1c(=O)n(C(C)(C)C(=O)O)c(=O)c2c(C)c(-c3ncco3)sc21)OC1CCOCC1	[1-13C]acetate infusion, isotopomer analysis	overweight or obese healthy men, plasma VLDL-TG palmitate	oral, 20 mg single dose, 5 h post-dose, with: oral fructose	–	fractional hepatic DNL	9.09 % new palmitate
CC1(C)CCC(c2ccc(Cl)cc2)=C(CN2CCN(c3ccc(C(=O)NS(=O)(=O)c4ccc(N[C@H](CCN5CCOCC5)CSc5ccccc5)c(S(=O)(=O)C(F)(F)F)c4)cc3)CC2)C1	cell killing, flow cytometry PI exclusion	canine blood CD21+ B cells, dog 32	24 h	–	EC50	376 nM
CC[C@@H]1[C@H](F)C(=O)N[C@@H]1COc1nccc2cc(C(N)=O)c(OC)cc12	ATP-site probe binding, ActivX profiling, item: SRPK1, SRPK2	THP-1 cell lysate	0.04 mM, Lys1 site	–	inhibition	-23%
Cc1n[nH]c2ccc(-c3cc(OC[C@@H](N)Cc4ccccc4)cnc3-c3ccoc3)cc12	kinase binding, competitor, MIB/MS competition, item: PBS2	Candida albicans cell lysate	100 nM	relative to: DMSO	log2 fold change	-0.000679
C[C@H](Oc1ccc(Br)cc1-c1ccon1)C(=O)O	last response latency	human, tibialis anterior muscle	100 mg, 15 Hz, SAD	–	difference from placebo	-0.895%
C[C@H]1C[C@H]2CSC(N)=N[C@@]2(c2nc(NC(=O)c3ccc(OC(F)F)cn3)cs2)CO1	item: Aβx-40	healthy adults, plasma	40 mg single dose, 8 h post-dose	relative to: placebo	percent change from baseline	-51.6%
O=S(=O)(NCCNC/C=C/c1ccc(Br)cc1)c1cccc2cnccc12	–	mouse zygotes	20 µM, 48 h post-hCG	–	embryos reaching 8-cell	0%
CN[C@@H]1COc2c(S(=O)(=O)NC(=O)Nc3c4c(cc5c3CCC5)CCC4)cnn2C1	item: IL-18	human participants, whole blood ex vivo	900 mg single dose, 4 h, IL-18, circulating, adjusted for, with: LPS/ATP	relative to: baseline	inhibition	105%
C[C@@H](NC(=O)N1C(=O)[C@H](Cc2ccnc(N)c2)[C@H]1C(=O)O)C1CCCCC1	–	human	iv infusion, 0.6 mg/kg/h, 24 h	–	aPTT AUEC	5910 h·s
O=C(OC(C(F)(F)F)C(F)(F)F)N1CCN(Cc2cccc(Oc3ccccc3)c2)CC1	PET blocking study	rhesus monkey, brain CB	0.3 mg/kg, compound pretreatment, with: [18F]T-401 tracer	–	k3	0.804 min⁻¹
CC(C)[C@H](C(=O)Nc1ccc(C(=O)NO)cc1)c1ccccc1	volumetric MRI	human, right vagal schwannoma	dose not given, end of treatment, day 835	–	annual tumour growth rate	22.4 %/year
COc1nnc2ccc(N3CCC(c4ccc(OCCN5CCN(C)C(=O)[C@H]5C)cc4)CC3)nn12	–	human patients	15 mg twice daily, 1.5-fold above baseline	–	time above HEXIM1 threshold	7.16 h
CC#CC(=O)N[C@H]1CCCN(c2c(F)cc(C(N)=O)c3[nH]c(C)c(C)c23)C1	–	human, peripheral blood	0.3 mg once daily, day 15	relative to: baseline	B cells	46.5 % change
NCC(=O)Nc1cncc(-c2nn3c(=O)cc(N4CCNCC4)nc3s2)c1	ADP-induced platelet aggregation, light transmission aggregometry	human, stable CAD on aspirin, ex vivo platelets	subcutaneous, 0.04 mg/kg, 60 min post-dose, mean value, with: ADP 20 µM	–	inhibition	28.6%
CN(C)C(=O)Oc1cccc([N+](C)(C)C)c1	neuromuscular block reversal	rat	dose not given, 4.5 (unit not given), with: cisatracurium	relative to: T1 twitch	train-of-four ratio	14.2
OC(CCN1CCCCC1)(c1ccccc1)C1CC2C=CC1C2 (stereo not drawn)	resting-state EEG	healthy elderly humans	oral, 2 mg, eyes open, LS mean	relative to: baseline	change, Theta power, EEG Pz-O2	11.8%

SMILES	test	system	setting	how to read	quantity	result
N#Cc1ccc2c(-c3ccncc3)c(-c3ccc(F)cc3)nn2c1	kinase binding, competitor, MIB/MS competition, item: KSP1	Candida albicans cell lysate	100 nM	relative to: DMSO	log2 fold change	0.0623
CCCCCN1C[C@H](O)[C@@H](O)[C@H](O)[C@@H]1CO	balance beam test	Hexb-/- mouse	dose not given	relative to: untreated	delay in beam-crossing failure	2 week
O=C(O)CNC(=O)Cc1ccccc1	–	ventricular cardiomyocytes, C57BL/6 mouse	dose not given, 0.84 s	–	sarcomere length	1.63 µm
NC(=O)c1cnc2[nH]ccc2c1N[C@@H]1[C@@H]2CC3C[C@H]1C[C@@](O)(C3)C2	CD4+ central memory T cells, flow cytometry	Japanese humans, peripheral blood	200 mg single dose	relative to: baseline	percent change	1%
CO[C@H]1CC[C@H](N2C(=O)CNc3ncc(-c4ccc(C(C)(C)O)nc4)nc32)CC1	flow cytometry	stimulated T cells, human, blood	45 mg single dose, 1.5 h, median	relative to: baseline	p4EBP1 change from baseline	-56.6%
N#Cc1ccc2c(c1)[C@H]1CCCN(C(=O)c3ccc4[nH]cnc4c3)[C@H]1C2	item: LDL	human	20 mg once daily, day 28, adjusted mean	–	change from baseline	-2.04 mg/dL
Cn1cc(Nc2nccc(-c3ccc4c(c3)CN(C3COC3)CC[C@H]4NC(=O)c3cn(C(C)(C)C)nn3)n2)cn1	item: D-myo-inositol-5-phosphate Metabolism	splenic B cells, mouse	in vivo, 30 mg/kg, IgD-activated B cells	relative to: vehicle, positive = activation	pathway activation z-score	1.15
N#Cc1cccc(OC(=O)N2CCC(C(c3ccccc3)c3ccccc3)CC2)c1	rebound tonometry	normotensive mice, eye	topical, dose not given, single application	–	intraocular pressure decrease	~4.5 mmHg
CC(=O)NCC(=O)NCC(=O)N[C@H](C(=O)N[C@@H](Cc1ccc(O)cc1)C(=O)N[C@@H](CO)C(=O)N[C@H]1CSSC[C@@H](C(=O)N[C@@H](CCCNC(=N)N)C(=O)N2CCC[C@H]2C(=O)N[C@@H](CCC(N)=O)C(=O)N[C@@H](CCCNC(=N)N)C(=O)NCC(=O)NCCC(=O)N[C@@H](CCCCNC(=O)CN(CC(=O)NCCCC[C@H](NC(=O)CCNC(=O)CNC(=O)[C@H](CCCNC(=N)N)NC(=O)[C@H](CCC(N)=O)NC(=O)[C@@H]2CCCN2C(=O)[C@H](CCCNC(=N)N)NC(=O)[C@@H]2CSSC[C@H](NC(=O)[C@H](CO)NC(=O)[C@H](Cc3ccc(O)cc3)NC(=O)[C@@H](NC(=O)CNC(=O)CNC(C)=O)[C@@H](C)O)C(=O)N[C@@H](Cc3c[nH]cn3)C(=O)N[C@@H](Cc3ccccc3)C(=O)NCC(=O)N[C@@H](C)C(=O)N[C@@H](CC(C)C)C(=O)N[C@@H]([C@@H](C)O)C(=O)N[C@@H](Cc3c[nH]c4ccccc34)C(=O)N[C@@H](C(C)C)C(=O)N2)C(N)=O)C(=O)CCN)C(N)=O)NC(=O)[C@H](C(C)C)NC(=O)[C@H](Cc2c[nH]c3ccccc23)NC(=O)[C@H]([C@@H](C)O)NC(=O)[C@H](CC(C)C)NC(=O)[C@H](C)NC(=O)CNC(=O)[C@H](Cc2ccccc2)NC(=O)[C@H](Cc2c[nH]cn2)NC1=O)[C@@H](C)O	–	healthy BALB/c mice	subcutaneous, 0.16 mg/kg, 4 d, single dose	–	haematocrit	47.1%
CCOc1c([C@H](C)n2nc(C)c3c(N)ncnc32)cc(Cl)c(F)c1[C@@H]1CNC(=O)C1	Olink proximity extension proteomics, item: CXCL13	human FL or MZL patients, plasma	dose not given, week 8	relative to: baseline	plasma protein level change	-77%
COc1ncc(-c2nc3c(n2C(C)C)[C@H](c2ccc(Cl)cc2)N(c2cc(Cl)cn(C)c2=O)C3=O)c(OC)n1	antileukemic activity, item: treatment failure, indeterminate cause	human, acute myeloid leukaemia	dose not given, all patients, IWG criteria	–	best overall response	8.8%
C[C@@H](O)CCOC(=O)C[C@@H](C)O	–	human	oral drink, dose not given, 60 min post dose, median, all participants	–	plasma insulin	1120 pg/mL
CN(CCOc1ccc(CC2SC(=O)NC2=O)cc1)c1ccccn1 (racemic)	indirect calorimetry	lean mice	dose not given, average over 72 h, end of treatment	–	VO2	75.6 ± 5.16 mL/min/kg
N#Cc1ccc2c(c1)[C@H]1CCCN(C(=O)c3ccc4[nH]cnc4c3)[C@H]1C2	–	T2DM patients with overweight or obesity, urine	oral, 40 mg, day 14, 0-24 h, multiple dosing, adjusted geometric mean	relative to: baseline day -1, -24-0 h	total urinary corticosteroid excretion	254%
CCN(CC)CCNC(=O)c1cc(S(C)(=O)=O)ccc1OC	catalepsy, bar test	female CD-1 mice	intraperitoneal, 200 mg/kg, 90 min, maximum 1 min	–	time on bar	28.9 s
N#Cc1ccn2c(-c3ccncc3)c(-c3ccc(F)cc3)nc2c1	kinase binding, competitor, MIB/MS competition, item: SAK1	Candida albicans cell lysate	1 µM	relative to: DMSO	log2 fold change	0.245
CC(C)NCC(O)c1ccc(O)c(O)c1 (stereo not drawn)	–	ventricular cardiomyocytes, C57BL/6 mouse	dose not given, 0.556 s	–	sarcomere length	1.51 µm
O=C1Nc2cc3[nH]nc(-c4ccncc4)c3cc2CN1Cc1ccccc1	RECIST v1.1	human, relapsed or refractory advanced solid tumours	intravenous, 0.45 mg/kg, pooled schedules	–	stable disease, best response	0%
Cc1cc(Nc2ccc(S(F)(F)(F)(F)F)cc2)n2nc(C(C)(F)F)nc2n1	item: dihydroorotate	female CD-1 mice, blood	oral, 300 mg/kg daily, 8 h after dose 1	–	DHO concentration	2.02 ± 0.344 µM

Some of these lines once more:
SMILES	test	system	setting	how to read	quantity	result
CC#CC(=O)N[C@H]1CCCN(c2c(F)cc(C(N)=O)c3[nH]c(C)c(C)c23)C1	–	human, peripheral blood	0.3 mg once daily, day 15	relative to: baseline	B cells	46.5 % change
NCC(=O)Nc1cncc(-c2nn3c(=O)cc(N4CCNCC4)nc3s2)c1	ADP-induced platelet aggregation, light transmission aggregometry	human, stable CAD on aspirin, ex vivo platelets	subcutaneous, 0.04 mg/kg, 60 min post-dose, mean value, with: ADP 20 µM	–	inhibition	28.6%
CN(C)C(=O)Oc1cccc([N+](C)(C)C)c1	neuromuscular block reversal	rat	dose not given, 4.5 (unit not given), with: cisatracurium	relative to: T1 twitch	train-of-four ratio	14.2
OC(CCN1CCCCC1)(c1ccccc1)C1CC2C=CC1C2 (stereo not drawn)	resting-state EEG	healthy elderly humans	oral, 2 mg, eyes open, LS mean	relative to: baseline	change, Theta power, EEG Pz-O2	11.8%
N#Cc1ccc2c(-c3ccncc3)c(-c3ccc(F)cc3)nn2c1	kinase binding, competitor, MIB/MS competition, item: KSP1	Candida albicans cell lysate	100 nM	relative to: DMSO	log2 fold change	0.0623
CCCCCN1C[C@H](O)[C@@H](O)[C@H](O)[C@@H]1CO	balance beam test	Hexb-/- mouse	dose not given	relative to: untreated	delay in beam-crossing failure	2 week
